Published values collected from several papers.
Numbered parts are unrelated; each lists some results of a single study.

Block 1
Target: RING finger protein unkempt homolog, zinc fingers 1-6, GST-SBP tag (UNK, Homo sapiens, UniProt Q9C0B0, residues 30-357)
UniProt Q9C0B0, sequence (30-357, looked up): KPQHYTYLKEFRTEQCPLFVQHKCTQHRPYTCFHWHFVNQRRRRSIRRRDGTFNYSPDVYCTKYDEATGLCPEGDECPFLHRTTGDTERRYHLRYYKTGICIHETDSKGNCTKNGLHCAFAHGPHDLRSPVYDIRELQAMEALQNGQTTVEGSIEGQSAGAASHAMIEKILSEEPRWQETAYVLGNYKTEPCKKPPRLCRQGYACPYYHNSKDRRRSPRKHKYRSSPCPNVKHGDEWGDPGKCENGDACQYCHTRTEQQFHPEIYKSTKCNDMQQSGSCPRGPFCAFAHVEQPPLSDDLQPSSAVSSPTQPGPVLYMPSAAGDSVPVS
Technique: RNA Bind-n-Seq
Form: RNA
Medium: in vitro
Concentration: not given
Notes: RNA with constant flanks, human and mouse sites, ends assumed
Relative to: input RNA pool
Direction: higher = stronger binding
`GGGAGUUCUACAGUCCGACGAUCAUUUUUUUCCCCCACUGUCAGAAAGCUAAGGGAAGCUUCAGAGUUCUAAUCCAGUUGCAUGUAGGACAAAGGAUAUACUUUAAAUAAAGACCAUCUAUUGAGGUGCAGUAGGGAACCUCUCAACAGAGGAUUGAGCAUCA` gave a bound/input enrichment of 0.676 ratio.
The bound/input enrichment of `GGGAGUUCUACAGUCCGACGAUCGAUUUCCUCACGUGCUCGCUUCGGCAGCACAUAUACUAAAAUUGGGACAAUACAGAGAAGAUUAGCGUGGCCCCUGCGCAAGGAUGACACGCAAAUUCGUGAAGCGUUCCAUAUUUUUGUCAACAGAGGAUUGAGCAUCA` is reported as 0.0687 ratio.
`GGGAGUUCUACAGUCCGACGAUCACUGACACGAUGAUUCAGACUCCUGGACCCUUGCCAACCCCACAGCUCACCUCCACGGUACUUAGAGAAAACAGCCGUCCCAUGGGAGAGCAGAUUCAGGAACCUGAGUCUGAGCAUGGCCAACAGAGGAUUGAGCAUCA` gave a bound/input enrichment of 0.176 ratio.
For `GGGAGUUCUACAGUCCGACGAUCGUAGGCUCUGUCCGUUCCCAUACCUCCAGCAGGGCCAGUGAGAAUCAGUCUCCCAGCAGUAGCAACUACUUCAGCCCCCGGGAGUCGACUGAUUUCUCCUCUACCUCCCAGGAUGCAUUUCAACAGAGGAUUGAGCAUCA`, the bound/input enrichment was 0.118 ratio.
With `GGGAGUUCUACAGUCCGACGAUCGAGGGGGGAGGGGAGGGAGCCAAGGGAUGGACAUCUUGUUUUUGUUUUGGCUUUUUUUUUUUUUGUUUCAGUUUUUUUUCUCUAUGAAUAAAUGUCACUUUUUGAGGCAAAAAGAAGGAACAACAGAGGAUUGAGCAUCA` the bound/input enrichment was 1.69 ratio.
The bound/input enrichment of `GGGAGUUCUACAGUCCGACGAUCCACAUGCUGCCUGGCCAGAACCAGUUCUUGCUGCCAGGCACCCCAGCCGUACAACUCCCUCAGUCACUCUCUGCACUGCCUGCCAACGUGGGAGGCCAGAUCCUCACAGCUGCAGCACCACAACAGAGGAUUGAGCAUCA` is reported as 0.103 ratio.
The bound/input enrichment of `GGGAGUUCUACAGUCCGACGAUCGCAGAAUAUGAGGAGAGUGUGGCCAAAGAAGACCAACCAGCAGUUCCAGGAGAGACUCAAGGUGACAGUUACUUUACUGGAAAGAAAACUAUUGAAACAGUGAAAGCAGCUGAGAGGAUUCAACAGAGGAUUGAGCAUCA` is reported as 0.326 ratio.
`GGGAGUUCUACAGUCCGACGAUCCUUGGUGUUCAUAUGUAUCUUUUAAUUUUUUUGAAAUUUGUUCAAGCUGUCAUUCCAACAAUAGAAUAUGACUACACAAGACACUUCACAAUGUAGUGGAGAGGCUAUAGAGUCUAUCCUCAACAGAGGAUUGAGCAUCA` gave a bound/input enrichment of 6.33 ratio.
The bound/input enrichment of `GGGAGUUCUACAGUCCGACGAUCAAAUGACAAGCGAUAGGCUAUUGCAACCUGAGAAAGAGAACUGCUCCUUCAUCGUAAAUUUAGAAGACCAAGUAGAUAAUGGAACCAAAGUUGUUACUUUUUUCUAGUAGUUAUUUUUCCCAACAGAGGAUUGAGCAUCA` is reported as 2.36 ratio.
For `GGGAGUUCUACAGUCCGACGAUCCAGGUACAAGAGCAGAAGGCACAUCUUAGAGCUGCACAAGACCGUGUCCUUUCCCUAGAAACUAGUGUCAAUGAAUUAAAUAGUCAAUUAAAUGAAAGCAAGGAGAAGGUCUCCCAGCUUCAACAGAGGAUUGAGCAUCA`, the bound/input enrichment was 230 ratio.
With `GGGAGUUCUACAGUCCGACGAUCUGCUCCUUUCUUCACCCAGAACCUGUUGUGGGGAGUAAGAUGCAUAAGAUGCCUGACCUAUUUAUCAUUGGCAGCGGUGAGGCCAUGUUGCAGCUCAUCCCUCCCUUCCAGUGCCGAAGACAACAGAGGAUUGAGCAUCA` the bound/input enrichment was 0.179 ratio.

Block 2
Target: Centromere-binding protein 1, full length, N-terminal tag (CBF1, Saccharomyces cerevisiae, UniProt P17106, residues 1-351)
UniProt P17106, sequence (whole entry, looked up): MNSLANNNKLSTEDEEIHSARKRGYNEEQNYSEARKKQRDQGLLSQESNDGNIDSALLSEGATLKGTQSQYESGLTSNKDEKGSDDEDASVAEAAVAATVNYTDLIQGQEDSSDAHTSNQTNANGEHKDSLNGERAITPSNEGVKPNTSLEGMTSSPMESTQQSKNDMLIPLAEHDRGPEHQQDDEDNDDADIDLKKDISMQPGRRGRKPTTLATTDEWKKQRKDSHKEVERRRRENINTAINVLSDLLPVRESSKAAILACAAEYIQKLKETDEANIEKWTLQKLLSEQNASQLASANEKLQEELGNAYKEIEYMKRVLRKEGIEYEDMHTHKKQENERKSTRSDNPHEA
Technique: protein-binding microarray
Form: double-stranded DNA, one strand shown
Medium: in vitro
Concentration: 0.8 µM
Notes: whole 60-bp probe, no competitor
Direction: higher = stronger binding
`CTAATATGCAAATATCACGTAGTTAAAAAACTATTCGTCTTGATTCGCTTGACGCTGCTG` has a fluorescence intensity of 598 a.u.
With `CTATTTCTTTCAGGTCACCTCTCAGCCGTCACGTTCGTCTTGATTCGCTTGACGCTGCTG` the fluorescence intensity was 639 a.u.
With `CTAAAAAGAAAAGGTGACATTATGCAGAACATATTCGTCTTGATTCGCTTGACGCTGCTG` the fluorescence intensity was 566 a.u.
With `CTACTCCGCTTTATTCACGTGAAATGGGGTCGATTCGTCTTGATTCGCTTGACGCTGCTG` the fluorescence intensity was 3910 a.u.
`CTAATAAACTTCAATCAGGTGATTTTTTTTTTGTTCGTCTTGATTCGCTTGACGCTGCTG` has a fluorescence intensity of 3430 a.u.
With `CTACGCTTCGGTAATCTGGTGAAATGATTGGATTTCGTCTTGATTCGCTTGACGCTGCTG` the fluorescence intensity was 526 a.u.
The fluorescence intensity of `CTATGGCGGTTTCACCAGACAACATAACACAGTTTCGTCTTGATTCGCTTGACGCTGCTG` is reported as 500 a.u.
`GAAAAAAAAAAACTACATGTGCTCATGAATATATAGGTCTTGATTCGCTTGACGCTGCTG` has a fluorescence intensity of 969 a.u.
`CTAGTGAGCTCATGTGGTGTGGTTGCTTGTCTGTTCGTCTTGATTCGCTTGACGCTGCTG` gave a fluorescence intensity of 550 a.u.
With `CTATCCTGGACTATAGACGTGAGTGGGGAGGAATTCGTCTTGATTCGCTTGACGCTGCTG` the fluorescence intensity was 530 a.u.
`CCTAACTACTATATTCATGATCAATAGCTTCGTACAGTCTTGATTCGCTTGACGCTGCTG` has a fluorescence intensity of 514 a.u.
`CTACATACAGAACGTAACATCAAAAAACAACCGTTCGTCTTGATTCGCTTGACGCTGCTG` has a fluorescence intensity of 494 a.u.
With `CTATCGAGCGGTAATCATGAGGGTCCCTGGTAGTTCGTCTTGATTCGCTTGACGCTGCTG` the fluorescence intensity was 508 a.u.
`GAAGATGAATAAAATCATGTGAGTATAATTTTCTAGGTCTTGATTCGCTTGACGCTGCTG` gave a fluorescence intensity of 1500 a.u.
For `CCTAACTACTATAAGCACGAATCATAGCTTCGTACAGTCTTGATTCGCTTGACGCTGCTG`, the fluorescence intensity was 522 a.u.
For `CTAGAAAAGCGTAGCCTCATGACTAGTTGTACCTTCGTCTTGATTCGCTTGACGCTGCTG`, the fluorescence intensity was 575 a.u.
With `GAATTCAAAATTCAGCACCTGATTTAGTAAAGGTAGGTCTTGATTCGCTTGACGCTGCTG` the fluorescence intensity was 1400 a.u.
The fluorescence intensity of `TGTACGAAGCTATATATGATCACTATAGTAGTTAGGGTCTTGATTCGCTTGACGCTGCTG` is reported as 526 a.u.
`GAAGAAAAGGGACACCACGAATACAGTAGTATCTAGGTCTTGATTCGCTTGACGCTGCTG` has a fluorescence intensity of 519 a.u.
`CTAGCAACATAACACCACCTTCTTTTAGTCTTTTTCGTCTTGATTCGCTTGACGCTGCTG` has a fluorescence intensity of 504 a.u.

Block 3
Target: Histone acetyltransferase KAT6A, both winged helices, GST fusion (KAT6A, Homo sapiens, UniProt Q92794, residues 1-181)
Technique: protein binding microarray
Form: double-stranded DNA, one strand shown
Medium: in vitro
Concentration: not given
Notes: 8-mer, flanks averaged, mean of 2 arrays, mostly near background
Relative to: not given
Direction: higher = stronger binding
Construct (chain): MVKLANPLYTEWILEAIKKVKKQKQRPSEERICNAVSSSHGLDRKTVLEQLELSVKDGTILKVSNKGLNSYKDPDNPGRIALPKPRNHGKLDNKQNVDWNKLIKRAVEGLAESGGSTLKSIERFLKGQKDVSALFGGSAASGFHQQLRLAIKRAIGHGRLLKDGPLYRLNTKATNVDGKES
`ACTAACCT` gave an E-score of -0.0639.
`CGTAGTTA` has an E-score of 0.143.
`ACAGTTAC` gave an E-score of 0.00182.
`ACCATCAT` has an E-score of -0.148.
`TAGCGATA` gave an E-score of 0.0784.
`AACGGAAA` gave an E-score of 0.259.
With `AATCAAAA` the E-score was -0.106.
The E-score of `GATTTTAA` is reported as -0.023.
For `CACTACAC`, the E-score was -0.00976.
The E-score of `GCTTCCAC` is reported as 0.0622.
For `ATCTTCGG`, the E-score was 0.022.
For `AATTCTCC`, the E-score was -0.0153.
`GTAACGAC` gave an E-score of 0.0386.
For `CTATTTGA`, the E-score was -0.0453.
With `GTATATAC` the E-score was 0.0169.
`AGCCGCCA` has an E-score of 0.188.
For `ATCATACC`, the E-score was 0.0221.
For `GTCACCCA`, the E-score was -0.109.
The E-score of `GCCAATGA` is reported as -0.163.
`CTGATTGC` has an E-score of 0.0331.
For `GGCGGACC`, the E-score was 0.223.
The E-score of `TCACTTCA` is reported as -0.0255.
`CAACGCCG` gave an E-score of 0.209.
`CTCTTAAG` gave an E-score of -0.0893.
`GAGATAAC` gave an E-score of -0.0563.

Block 4
Target: RNA binding protein fox-1 homolog 2, RRM domain, GST-SBP tag (RBFOX2, Homo sapiens, UniProt O43251-10, residues 100-194)
Technique: RNA Bind-n-Seq
Form: RNA
Medium: in vitro
Concentration: 365 nM
Notes: natural RNA segment, single round, ends assumed
Relative to: no-protein control
Direction: higher = stronger binding
Construct (chain): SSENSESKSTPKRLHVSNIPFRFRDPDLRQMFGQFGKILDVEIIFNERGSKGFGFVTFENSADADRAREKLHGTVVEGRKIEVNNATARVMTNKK
`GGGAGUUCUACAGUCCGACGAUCAUCUUGAAGUCCGUUAUAUGCAGAAUGAAGUUUUGCCAAGUCUGCUGGCAUUCACACGCUUCCAUGGACAAACUUGACUUGCUCUAGGGAACCUUGGGUUAUCAUGUCACUGGAAUUCUCGGGUGCCAA`: “RBNS enrichment (R)” 0.375.
For `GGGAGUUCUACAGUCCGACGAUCUCUAAGAGUUGAUUGCUGUAUAUUAAAAUUGAACAUCAGAGGAUGGGAAGAGGGCUCUGUAAGCCAGAACCUUACUAAAGUAGAGGGCACAAUCAGUGUGAAUAAAUUCAUGGAAUUCUCGGGUGCCAA`, “RBNS enrichment (R)” read 0.81.
`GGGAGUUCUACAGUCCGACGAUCAAAGAAGAAACCACCCUGAUCCCCCAUUUCCUACAGUUGAGCAUGGACUCCCUAGUGCCCAUGCUGAGAUCUCAGCAUGUUCUAGAUGGGUCCUCUAGAGCACGGGUUUGUGGAAUUCUCGGGUGCCAA` — result for “RBNS enrichment (R)”: 0.409.
For `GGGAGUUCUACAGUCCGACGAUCCUGUAGUCUUAACUCUAACCCUCUGGUGCUGCUCUCUGAGCAGCAGUAUUUACAAUAACCGAGCUAUCACGGCUAACUCUCGCAUGUCAGGAAACACAGACCUUAGCGAUUGGAAUUCUCGGGUGCCAA`, “RBNS enrichment (R)” read 4.64.
`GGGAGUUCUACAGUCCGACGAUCAUUAGAAUAGGAUAGCAUCUGAUGCCUGAGAACCCUCUCCUAGCACUGUCAAAUGCUGGUAUUGAAUGGGGACUGAGGAUGGGUCUCAGAGAGCAACCUCCUCCCUCGUAUGGAAUUCUCGGGUGCCAA` — result for “RBNS enrichment (R)”: 1.26.
Under “RBNS enrichment (R)”, `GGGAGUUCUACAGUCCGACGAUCGAUUUCCUGAAAAGGGAACACCGGAAUUUGAUUUGUGGCCAAAUUUACUGAGAAAAAGAUGAGGUUCUAAAAUGGUGGUAUGAAGCCCUCUCCCUUCUUUGUAGAAUUAAUGGAAUUCUCGGGUGCCAA` is recorded as 0.948.
Under “RBNS enrichment (R)”, `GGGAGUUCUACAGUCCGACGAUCUAAAAUACUUAAGACGGUUUCUGAUUUUUCCACUAUUUAAAUAAUGCUGUGAUGAAUAUCUUUAAAAUCUUCUGAUUUCUUACUUUUUUCCCCCUUAGAUGCCUGGAAGUUGGAAUUCUCGGGUGCCAA` is recorded as 0.66.
For `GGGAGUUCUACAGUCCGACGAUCAAAGCACUCUGUUCUUCGCCUACUCUGUAAUCGUUUUGUCAUAAUGAGCCAUGAAAAAAGUAAUGAACUUGUGCUGUUAAUCGUCACUGUAAUGAGAAGUCUUACGUACAUGGAAUUCUCGGGUGCCAA`, “RBNS enrichment (R)” read 0.544.
`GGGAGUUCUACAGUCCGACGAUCCCAGUAAUGGAGGCCUCCAGCCUGGGCUCUAUUACAUUCUUCUCUACAGCUGCCCCAUAACCCGUGGCUUAUCCCUGGCACGUGGGGCCACACCCCACGCCCCCUGGAUAUGGAAUUCUCGGGUGCCAA`: “RBNS enrichment (R)” 0.192.

Some of these lines once more (block 3):
`GAGATAAC` gave an E-score of -0.0563.
For `AATTCTCC`, the E-score was -0.0153.
For `GTCACCCA`, the E-score was -0.109.
